Experimental data gathered from unrelated publications.
Each numbered part is a random draw from the data of one study; scales do not carry over between parts. Positions count from the first letter of the parent shown.

Series 1
Target: CCNB1, cyclin fold, Cln2 fusion (human)
Technique: yeast growth competition, sequencing
Matrix: yeast
Setting: weak parent motif
Reference: not given
Direction: higher = stronger binding
Parent: WEE1 docking peptide (human); HKTFRKLRLFDTP
Under “normalised enrichment score”, `HCTFRKLRLFDTP [K2C]` is recorded as 0.837.
`HKTFRKRRLFDTP [L7R]`: “normalised enrichment score” 0.748.
`KKTFRKLRLFDTP [H1K]` — result for “normalised enrichment score”: 0.727.
For `HKTFRKERLFDTP [L7E]`, “normalised enrichment score” read 0.29.
Under “normalised enrichment score”, `HVTFRKLRLFDTP [K2V]` is recorded as -0.312.
For `HKTFRKLRLFITP [D11I]`, “normalised enrichment score” read -0.965.
`HKTFRKLRLQDTP [F10Q]` — result for “normalised enrichment score”: -0.181.
Under “normalised enrichment score”, `HKTFRGLRLFDTP [K6G]` is recorded as -0.665.
Under “normalised enrichment score”, `HKTFRKLRLFDRP [T12R]` is recorded as 0.796.
`HKTFRKLMLFDTP [R8M]` — result for “normalised enrichment score”: 0.304.
`HKTFRKLRLFDTN [P13N]` — result for “normalised enrichment score”: 1.62.
Under “normalised enrichment score”, `HKTFRKLRLFETP [D11E]` is recorded as 0.235.
For `HKMFRKLRLFDTP [T3M]`, “normalised enrichment score” read 0.423.
`EKTFRKLRLFDTP [H1E]`: “normalised enrichment score” 0.193.
Under “normalised enrichment score”, `HKTCRKLRLFDTP [F4C]` is recorded as 0.532.
`HHTFRKLRLFDTP [K2H]` — result for “normalised enrichment score”: 0.472.
For `HKTFRKLRLFDQP [T12Q]`, “normalised enrichment score” read 0.734.
`HKTFRKLVLFDTP [R8V]`: “normalised enrichment score” 0.0614.

Series 2
Target: ABI1, truncated, D143A, DHFR fusion (Arabidopsis thaliana)
Technique: DHFR PCA, deep sequencing
Matrix: yeast
Setting: methotrexate growth selection, single substitutions
With: (+)-ABA 0.0091 µM
Reference: wild-type fitted maximum
Direction: higher = stronger binding
Parent: PYL1, truncated, DHFR fusion (Arabidopsis thaliana); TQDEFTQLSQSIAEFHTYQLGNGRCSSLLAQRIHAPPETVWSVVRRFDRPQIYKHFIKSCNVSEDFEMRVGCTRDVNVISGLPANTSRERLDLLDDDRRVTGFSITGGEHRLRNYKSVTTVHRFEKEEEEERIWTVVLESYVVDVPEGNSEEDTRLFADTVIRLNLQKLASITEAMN; partner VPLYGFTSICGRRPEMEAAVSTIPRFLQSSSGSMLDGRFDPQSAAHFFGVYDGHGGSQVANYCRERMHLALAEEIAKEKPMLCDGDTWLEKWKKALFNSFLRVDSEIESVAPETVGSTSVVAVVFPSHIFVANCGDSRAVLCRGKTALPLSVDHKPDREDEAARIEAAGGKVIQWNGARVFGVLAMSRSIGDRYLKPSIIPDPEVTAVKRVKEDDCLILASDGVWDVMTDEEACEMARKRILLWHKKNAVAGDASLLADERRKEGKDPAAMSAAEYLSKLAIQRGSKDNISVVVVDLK
`V145E` — result for “relative binding score”: -3.95%.
`Q10R` — result for “relative binding score”: 21%.
`A30S` — result for “relative binding score”: 24.3%.
`E127I`: “relative binding score” 21.6%.
`A158T`: “relative binding score” 6.68%.
For `N177H`, “relative binding score” read 57.6%.
Under “relative binding score”, `L91E` is recorded as 1.6%.
Under “relative binding score”, `D3P` is recorded as 14.3%.
`Y53C` — result for “relative binding score”: -5.24%.
For `E109H`, “relative binding score” read 13.8%.
`F157R` — result for “relative binding score”: -1.73%.
`K54A`: “relative binding score” 1.29%.
For `C25M`, “relative binding score” read 2.98%.
`V142S`: “relative binding score” 13.3%.
Under “relative binding score”, `S140E` is recorded as -2.14%.
`A170T`: “relative binding score” 4.25%.

Series 3
Target: Sal-like protein 4, full length isoform A (SALL4, Homo sapiens, UniProt Q9UJQ4, residues 1-1053)
Sequence of UniProt Q9UJQ4 (whole entry, looked up): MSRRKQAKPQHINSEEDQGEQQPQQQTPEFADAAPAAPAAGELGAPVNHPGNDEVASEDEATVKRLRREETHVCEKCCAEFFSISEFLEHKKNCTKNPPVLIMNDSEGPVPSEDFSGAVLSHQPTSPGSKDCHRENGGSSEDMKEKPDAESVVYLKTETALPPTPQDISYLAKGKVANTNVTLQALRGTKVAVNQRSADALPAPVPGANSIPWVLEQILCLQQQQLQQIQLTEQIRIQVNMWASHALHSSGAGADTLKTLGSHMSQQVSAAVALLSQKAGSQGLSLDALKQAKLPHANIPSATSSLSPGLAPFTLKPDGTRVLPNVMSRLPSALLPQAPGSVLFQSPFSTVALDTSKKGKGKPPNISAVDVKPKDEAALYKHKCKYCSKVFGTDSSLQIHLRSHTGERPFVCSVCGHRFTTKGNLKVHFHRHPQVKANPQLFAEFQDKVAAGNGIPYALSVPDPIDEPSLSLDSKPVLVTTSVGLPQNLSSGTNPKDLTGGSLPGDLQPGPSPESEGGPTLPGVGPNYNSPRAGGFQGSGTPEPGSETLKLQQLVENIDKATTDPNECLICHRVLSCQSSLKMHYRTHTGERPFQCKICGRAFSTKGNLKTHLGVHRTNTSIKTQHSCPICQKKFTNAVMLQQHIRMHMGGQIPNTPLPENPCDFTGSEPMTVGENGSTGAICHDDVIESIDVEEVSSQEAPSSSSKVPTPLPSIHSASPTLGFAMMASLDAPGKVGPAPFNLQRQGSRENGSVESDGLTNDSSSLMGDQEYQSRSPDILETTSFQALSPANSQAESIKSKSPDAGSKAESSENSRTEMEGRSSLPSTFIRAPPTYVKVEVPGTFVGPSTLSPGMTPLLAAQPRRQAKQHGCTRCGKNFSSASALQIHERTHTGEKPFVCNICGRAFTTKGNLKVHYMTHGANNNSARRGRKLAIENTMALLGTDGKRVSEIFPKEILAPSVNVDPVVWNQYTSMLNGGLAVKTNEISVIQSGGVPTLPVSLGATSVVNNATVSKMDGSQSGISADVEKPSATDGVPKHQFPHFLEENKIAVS
Technique: universal PBM
Form: double-stranded DNA, one strand shown
Matrix: in vitro
Concentration: 600 nM
Setting: 8-mer, flanks averaged, mean of replicates
Direction: higher = stronger binding
`ATAATCGC` has an E-score of 0.233.
For `AACAGCAT`, the E-score was 0.0724.
With `ACGGGGTC` the E-score was -0.345.
For `ACCTTAAG`, the E-score was 0.0897.
With `GCACCTGA` the E-score was -0.0072.
`ACCATCAG` gave an E-score of -0.113.
The E-score of `CGTGAGAA` is reported as -0.0712.
`ACCGCAGG` has an E-score of -0.228.
`CCGACTTC` has an E-score of -0.396.
`ATTATTAA` has an E-score of 0.442.
For `ATTTAGTA`, the E-score was 0.351.
For `ACGCACGA`, the E-score was 0.00886.
`AACCAACG` has an E-score of -0.093.
`GATTGAGA` gave an E-score of 0.193.
The E-score of `GGCTGGTA` is reported as -0.273.
For `GGGCGAAC`, the E-score was -0.186.

Single results of other studies
With `PhoQ, residues 284 288 289 292 302 303 SVHLDV` the fold induction was 5.86 (PhoP, residues 12 14 15 18 19 QYCSL (Escherichia coli, UniProt P23836); Sort-seq, measured: YFP reporter; E. coli; PhoQ-PhoP variant library, with: 10 µM Mg2+; reference: high Mg2+ state, higher = stronger signaling).

Some of these lines once more (series 2):
`Q10R` — result for “relative binding score”: 21%.
`V145E` — result for “relative binding score”: -3.95%.
`A30S` — result for “relative binding score”: 24.3%.
